Measurements gathered from unrelated publications.
Compare with care: the assays were run in different laboratories. Several values in a cell are separate wells, animals, samples, runs or records. Numbers after ± are the reported error.
Fibroin-modulator-binding protein-1: Fibroin-modulator-binding protein-1 99-193 (Bombyx mori, UniProt Q5FBS0)
B1: CDC48A 1-190 (Arabidopsis thaliana, UniProt P54609); chain MSTPAESSDSKSKKDFSTAILERKKSPNRLVVDEAINDDNSVVSLHPATMEKLQLFRGDTILIKGKKRKDTVCIALADETCEEPKIRMNKVVRSNLRVRLGDVISVHQCPDVKYGKRVHILPVDDTVEGVTGNLFDAYLKPYFLEAYRPVRKGDLFLVRGGMRSVEFKVIETDPAEYCVVAPDTEIFCEG
B2: CFH domains 1108-1231 V1197A (Homo sapiens, UniProt P08603); sequence looked up; chain KCGPPPPIDNGDITSFPLSVYAPASSVEYQCQNLYQLEGNKRITCRNGQWSEPPKCLHPCVISREIMENYNIALRWTAKQKLYSRTGESAEFVCKRGYRLSSRSHTLRTTCWDGKLEYPTCAKR
B3: acpP (Escherichia coli, UniProt P0A6A8); 4-DMN-phosphopantetheine; sequence looked up; chain MSTIEERVKKIIGEQLGVKQEEVTNNASFVEDLGADSLDTVELVMALEEEFDTEIPDEEAEKITTVQAAIDYINGHQA
B4: TEPSIN L438S/W444S (Homo sapiens, UniProt Q96N21); chain MAAAPPLRDRLSFLHRLPILLKGTSDDDVPCPGYLFEEIAKISHESPGSSQCLLEYLLSRLHSSSGHGKLKVLKILLYLCSHGSSFFLLILKRNSAFIQEAAAFAGPPDPLHGNSLYQKVRAAAQDLGSTLFSDTVLPLAPSQPLGTPPATGMGSQARPHSTLQGFGYSKEHGRTAVRHQPGQAGGGWDELDSGPSSQNSSQNSDLSRVSDSGSHSGSDSHSGASREPGDLAERVEVVALSDCQQELSLVRTVTRGPRAFLSREEAQHFIKACGLLNCEAVLQLLTCHLRGTSECTQLRALCAIASLGSSDLLPQEHILLRTRPWLQELSMGSPGPVTNKATKILRHFEASCGQLSPARGTSAEPGPTAALPGPSDLLTDAVPLPGSQVFLQPLSSTPVSSRSPAPSSGMPSSPVPTPPPDASPIPAPGDPSEAEARSAESRRSRPERIPGGTDSPKRGPSSCAWSRDSLFAGMELVACPRLVGAGAAAGESCPDAPRAPQTSSQRTAAKEPPGSEPSAFAFLNA
B5: ANGPT1 283-498 A451D (Homo sapiens, UniProt Q15389); chain FRDCADVYQAGFNKSGIYTIYINNMPEPKKVFCNMDVNGGGWTVIQHREDGSLDFQRGWKEYKMGFGNPSGEYWLGNEFIFAITSQRQYMLRIELMDWEGNRAYSQYDRFHIGNEKQNYRLYLKGHTGTAGKQSSLILHGADFSTKDADNDNCMCKCALMLTGGWWFDDCGPSNLNGMFYTAGQNHGKLNGIKWHYFKGPSYSLRSTTMMIRPLDF
B6: mglB (Myxococcus xanthus, UniProt Q1DB03); sequence looked up; chain MGTQLVMYEEEFTKINAVCDRLTKDANAKVVFLVDKNGQLISSAGQTQNIDTTSLASLTAGNVAAMGGLAKLIGENEFPNQFHEGAKDSLYMTIVGSRVVLVVIFDNRTSLGLVRLRIKKASDELTKIFESLVKKTDSPGAGSPFAEISDDDIDNLFSE
B7: EFR3B 716-787 (Homo sapiens, UniProt Q9Y2G0); chain VPAEEITYETLKKAIVDSVAVEEQERERRRQVVEKFQKAPFEEIAAHCGARASLLQSKLNQIFEITIRPPPS
UniProt Q7Z2W4, sequence (whole entry, looked up): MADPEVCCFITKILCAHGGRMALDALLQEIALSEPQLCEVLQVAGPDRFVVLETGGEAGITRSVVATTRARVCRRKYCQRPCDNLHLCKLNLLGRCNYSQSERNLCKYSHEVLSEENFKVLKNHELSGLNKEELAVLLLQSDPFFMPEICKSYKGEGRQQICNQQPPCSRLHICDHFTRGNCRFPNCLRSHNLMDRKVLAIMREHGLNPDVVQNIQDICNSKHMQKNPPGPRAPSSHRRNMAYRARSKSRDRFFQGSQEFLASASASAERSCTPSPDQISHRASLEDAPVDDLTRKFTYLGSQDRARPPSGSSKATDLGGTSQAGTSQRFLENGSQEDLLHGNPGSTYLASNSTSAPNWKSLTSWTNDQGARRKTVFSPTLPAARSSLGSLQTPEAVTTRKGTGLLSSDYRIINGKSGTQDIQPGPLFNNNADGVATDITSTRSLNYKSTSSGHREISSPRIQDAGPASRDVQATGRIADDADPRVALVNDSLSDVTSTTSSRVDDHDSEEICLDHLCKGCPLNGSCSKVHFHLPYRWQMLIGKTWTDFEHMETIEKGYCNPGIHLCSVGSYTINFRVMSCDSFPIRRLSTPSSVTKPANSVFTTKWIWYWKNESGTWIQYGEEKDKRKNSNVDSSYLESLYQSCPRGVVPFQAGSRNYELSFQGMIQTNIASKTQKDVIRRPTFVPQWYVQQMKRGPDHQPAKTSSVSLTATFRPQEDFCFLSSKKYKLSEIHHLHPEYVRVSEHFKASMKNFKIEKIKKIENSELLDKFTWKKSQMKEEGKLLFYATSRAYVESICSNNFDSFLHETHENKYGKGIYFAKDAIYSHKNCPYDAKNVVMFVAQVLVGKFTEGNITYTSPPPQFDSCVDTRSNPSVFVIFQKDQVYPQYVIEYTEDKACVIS
UniProt Q02763, sequence (whole entry, looked up): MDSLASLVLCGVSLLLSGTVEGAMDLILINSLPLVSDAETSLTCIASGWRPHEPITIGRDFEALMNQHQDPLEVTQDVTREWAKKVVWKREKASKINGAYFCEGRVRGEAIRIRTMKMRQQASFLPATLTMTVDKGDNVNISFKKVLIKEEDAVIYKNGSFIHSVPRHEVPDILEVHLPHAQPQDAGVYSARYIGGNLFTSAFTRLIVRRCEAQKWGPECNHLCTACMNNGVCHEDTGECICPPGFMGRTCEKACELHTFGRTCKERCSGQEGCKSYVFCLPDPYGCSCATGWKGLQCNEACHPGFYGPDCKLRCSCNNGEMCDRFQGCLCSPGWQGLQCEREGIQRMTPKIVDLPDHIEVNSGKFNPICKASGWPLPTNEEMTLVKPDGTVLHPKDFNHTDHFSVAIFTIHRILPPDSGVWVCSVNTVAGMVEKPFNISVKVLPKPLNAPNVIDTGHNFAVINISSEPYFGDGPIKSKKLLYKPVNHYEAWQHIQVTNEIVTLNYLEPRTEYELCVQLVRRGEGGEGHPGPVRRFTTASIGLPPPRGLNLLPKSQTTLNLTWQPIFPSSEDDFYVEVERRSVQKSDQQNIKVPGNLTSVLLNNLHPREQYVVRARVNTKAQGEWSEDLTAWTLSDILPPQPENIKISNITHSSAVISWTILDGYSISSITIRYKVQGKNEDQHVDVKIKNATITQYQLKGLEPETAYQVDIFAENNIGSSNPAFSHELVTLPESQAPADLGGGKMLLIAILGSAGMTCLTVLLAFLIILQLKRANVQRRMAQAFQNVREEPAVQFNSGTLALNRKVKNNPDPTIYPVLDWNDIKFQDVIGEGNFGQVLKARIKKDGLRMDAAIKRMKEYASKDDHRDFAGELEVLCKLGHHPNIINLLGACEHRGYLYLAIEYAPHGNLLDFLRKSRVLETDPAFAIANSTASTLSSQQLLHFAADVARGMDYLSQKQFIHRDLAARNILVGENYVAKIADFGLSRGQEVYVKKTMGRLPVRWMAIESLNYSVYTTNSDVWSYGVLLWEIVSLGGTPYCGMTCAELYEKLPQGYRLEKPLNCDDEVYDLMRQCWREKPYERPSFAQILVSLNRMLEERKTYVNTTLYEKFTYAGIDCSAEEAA
UniProt P01024, sequence (whole entry, looked up): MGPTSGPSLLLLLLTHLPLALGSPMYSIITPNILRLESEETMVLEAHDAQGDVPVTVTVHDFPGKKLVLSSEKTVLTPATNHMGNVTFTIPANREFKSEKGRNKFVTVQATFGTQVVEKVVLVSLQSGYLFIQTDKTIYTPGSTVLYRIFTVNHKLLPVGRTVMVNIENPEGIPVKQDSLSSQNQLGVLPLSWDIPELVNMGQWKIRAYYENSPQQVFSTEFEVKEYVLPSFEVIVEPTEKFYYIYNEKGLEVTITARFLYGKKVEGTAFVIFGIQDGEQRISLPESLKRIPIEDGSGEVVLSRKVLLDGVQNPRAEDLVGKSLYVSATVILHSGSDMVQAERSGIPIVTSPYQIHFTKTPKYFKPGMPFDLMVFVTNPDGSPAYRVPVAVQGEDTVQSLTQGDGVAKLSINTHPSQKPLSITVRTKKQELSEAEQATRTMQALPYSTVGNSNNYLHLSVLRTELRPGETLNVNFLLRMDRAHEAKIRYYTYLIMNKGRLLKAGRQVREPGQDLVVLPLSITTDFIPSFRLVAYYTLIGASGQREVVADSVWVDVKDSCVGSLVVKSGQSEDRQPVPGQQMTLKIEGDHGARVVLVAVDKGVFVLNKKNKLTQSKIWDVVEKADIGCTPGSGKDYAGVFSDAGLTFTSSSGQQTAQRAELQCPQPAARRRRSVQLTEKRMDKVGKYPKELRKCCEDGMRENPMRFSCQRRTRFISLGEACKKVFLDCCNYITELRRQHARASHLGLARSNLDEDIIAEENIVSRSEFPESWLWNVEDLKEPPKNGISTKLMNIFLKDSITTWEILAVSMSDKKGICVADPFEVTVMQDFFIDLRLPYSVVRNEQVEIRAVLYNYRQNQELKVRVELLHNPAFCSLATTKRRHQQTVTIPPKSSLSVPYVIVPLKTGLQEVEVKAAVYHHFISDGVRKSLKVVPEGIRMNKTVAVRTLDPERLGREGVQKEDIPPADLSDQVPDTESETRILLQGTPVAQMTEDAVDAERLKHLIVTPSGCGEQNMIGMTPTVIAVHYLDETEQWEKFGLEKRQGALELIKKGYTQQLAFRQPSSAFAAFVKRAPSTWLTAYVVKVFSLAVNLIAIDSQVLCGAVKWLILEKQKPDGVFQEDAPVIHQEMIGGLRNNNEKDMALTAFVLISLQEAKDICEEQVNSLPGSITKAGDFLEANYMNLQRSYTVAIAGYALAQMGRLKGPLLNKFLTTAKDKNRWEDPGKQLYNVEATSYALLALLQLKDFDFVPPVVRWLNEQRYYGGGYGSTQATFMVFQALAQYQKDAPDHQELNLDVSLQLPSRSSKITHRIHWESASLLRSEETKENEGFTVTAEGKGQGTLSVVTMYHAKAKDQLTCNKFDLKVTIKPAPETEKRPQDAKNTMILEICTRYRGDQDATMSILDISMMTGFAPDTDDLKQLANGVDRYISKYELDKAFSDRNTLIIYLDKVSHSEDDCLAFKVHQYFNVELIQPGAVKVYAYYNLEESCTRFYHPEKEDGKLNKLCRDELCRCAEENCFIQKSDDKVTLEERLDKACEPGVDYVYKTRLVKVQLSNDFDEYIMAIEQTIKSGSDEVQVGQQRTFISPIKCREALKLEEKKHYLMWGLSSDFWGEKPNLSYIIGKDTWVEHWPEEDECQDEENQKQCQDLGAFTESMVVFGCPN
UniProt Q9QY76, sequence (whole entry, looked up): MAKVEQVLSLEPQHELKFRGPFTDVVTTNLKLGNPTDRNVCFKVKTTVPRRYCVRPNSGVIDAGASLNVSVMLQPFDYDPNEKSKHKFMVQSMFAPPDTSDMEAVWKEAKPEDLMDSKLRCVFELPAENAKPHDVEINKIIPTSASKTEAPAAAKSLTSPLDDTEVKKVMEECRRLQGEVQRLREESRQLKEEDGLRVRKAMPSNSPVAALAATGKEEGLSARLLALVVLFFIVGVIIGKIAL
UniProt P13001, sequence (whole entry, looked up): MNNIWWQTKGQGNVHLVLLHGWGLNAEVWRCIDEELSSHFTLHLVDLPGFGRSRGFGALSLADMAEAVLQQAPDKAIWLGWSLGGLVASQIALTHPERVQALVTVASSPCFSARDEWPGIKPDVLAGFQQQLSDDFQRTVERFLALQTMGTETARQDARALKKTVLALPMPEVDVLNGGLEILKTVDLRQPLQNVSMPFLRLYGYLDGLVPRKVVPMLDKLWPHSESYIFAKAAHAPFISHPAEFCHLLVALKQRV
UniProt P09038, sequence (whole entry, looked up): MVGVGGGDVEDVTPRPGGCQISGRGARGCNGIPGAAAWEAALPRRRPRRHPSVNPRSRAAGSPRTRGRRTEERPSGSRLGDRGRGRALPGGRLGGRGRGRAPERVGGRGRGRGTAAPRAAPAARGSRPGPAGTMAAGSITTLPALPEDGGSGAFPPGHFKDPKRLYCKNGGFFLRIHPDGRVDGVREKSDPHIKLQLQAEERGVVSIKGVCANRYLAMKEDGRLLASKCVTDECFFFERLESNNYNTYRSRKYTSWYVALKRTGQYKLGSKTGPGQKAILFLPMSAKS
UniProt Q1DB04, sequence (whole entry, looked up): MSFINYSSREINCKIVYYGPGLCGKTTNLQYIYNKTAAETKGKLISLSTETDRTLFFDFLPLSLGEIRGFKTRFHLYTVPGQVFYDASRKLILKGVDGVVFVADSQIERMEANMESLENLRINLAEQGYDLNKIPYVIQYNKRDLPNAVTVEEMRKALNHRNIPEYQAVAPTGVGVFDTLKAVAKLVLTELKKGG

Substance | target or system | test | test system | setting | how to read | quantity | result
triosephosphate isomerase | – | co-immunoprecipitation | human RBC membrane | unit not given, together with: Band 3 peptide 1-56 bait | relative to: negative control | co-IP enrichment | 0.169
KLLMIIHDRREFAKFEKEKMNAKWDTGENPIYKSPVTTVVNPKYEGK (ITGB1 752-798 A786P (Homo sapiens, UniProt P05556-1); sequence looked up) | Tln1 309-405 (Mus musculus, UniProt P26039) | NMR titration | – | – | – | Kd | 243000 nM
B1 (CDC48A 1-190) | PUX6 (Arabidopsis thaliana, UniProt F4IXN6) | BLI | – | 25 °C | – | Kd | 9.6 ± 0.1 nM
KHNYN NYN-CTD | ZC3HAV1 RBD 2-227 (Homo sapiens, UniProt Q7Z2W4) | BLI | – | – | – | Kd | 310 ± 200 nM
B2 (CFH domains 1108-1231 V1197A) | C3 996-1303 (Homo sapiens, UniProt P01024) | SPR | – | – | – | Kd | 10100 ± 800 nM
PKRSFIESNV | human MAGI1-2/6 PDZ construct (MBP fusion) | automated holdup | peptide, purified PDZ protein | concentration not given, unit not given | relative to: biotin control resin, higher = stronger binding | binding intensity | 0.284
ACATACATACAT (dsDNA) | Fibroin-modulator-binding protein-1 | ITC | double-stranded DNA, one strand shown | – | – | Kd | 615 ± 34 nM
FGF2, 125I label (UniProt P09038) | FGFR1 ectodomain (Homo sapiens) | radioligand binding | – | – | – | Kd | 1.8 nM
ATGGATGGATGG (dsDNA) | Fibroin-modulator-binding protein-1 | ITC | double-stranded DNA, one strand shown | – | – | Kd | 1680 ± 110 nM
B3 (acpP) | BioH, His tag omitted (UniProt P13001) | fluorescence titration | – | – | – | Kd | 1130 nM
B4 (TEPSIN L438S/W444S) | MAP1LC3B fragment (Homo sapiens) | BLI | – | – | – | Kd | 5720 nM and 6130 nM and 6950 nM and 9010 nM
B5 (ANGPT1 283-498 A451D) | TEK 23-748 (Homo sapiens, UniProt Q02763) | SPR | – | – | – | Kd | 279 nM
GGLQWIPRA | Jurkat T cells expressing 1G4 TCR | NFAT-eGFP reporter, flow cytometry | peptide | concentration not given, HLA-A*02:01 NY-ESO system | – | reporter activation | 0.23%
B6 (mglB) | mglA (Myxococcus xanthus, UniProt Q1DB04) | ITC | – | 25 °C, one-site model, together with: GTPγS 100 µM | – | Kd | < 310 nM
ENSSEEEFFDAHEGFSDSDE (Pitpnm1 343-362 (Mus musculus, UniProt O35954); sequence looked up) | Vapb 1-125 (Mus musculus, UniProt Q9QY76) | ITC | – | – | – | Kd | 920 nM
B7 (EFR3B 716-787) | TTC7B/FAM126A FAM126A 1-308 | BLI | – | – | – | Kd | 0.405 nM

For quick reference, copied from above:
Substance | target or system | test | test system | setting | how to read | quantity | result
B6 (mglB) | mglA (Myxococcus xanthus, UniProt Q1DB04) | ITC | – | 25 °C, one-site model, together with: GTPγS 100 µM | – | Kd | < 310 nM
